Experimental data pooled from the literature.
Compare with care: the assays were run in different laboratories. Numbers after ± are the reported error. In brackets after ≈: the same amount, converted by molar mass.

By UniProt entry, the sequences of proteins in these tests, tags left out.
UniProt P41145, whole entry: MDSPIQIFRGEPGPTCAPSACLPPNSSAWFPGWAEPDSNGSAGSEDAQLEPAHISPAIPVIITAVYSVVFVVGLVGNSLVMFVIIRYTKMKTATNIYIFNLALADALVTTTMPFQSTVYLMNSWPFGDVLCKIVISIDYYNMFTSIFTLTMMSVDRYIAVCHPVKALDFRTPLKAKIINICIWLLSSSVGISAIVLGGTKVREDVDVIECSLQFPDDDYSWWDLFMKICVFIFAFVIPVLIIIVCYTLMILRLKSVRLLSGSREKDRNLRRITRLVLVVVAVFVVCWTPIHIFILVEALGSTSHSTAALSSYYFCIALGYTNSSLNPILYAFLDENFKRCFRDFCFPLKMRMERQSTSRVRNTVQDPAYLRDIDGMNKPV

SMILES	target or system	test	system	conditions	scale	quantity	value
CCC1C(=O)N(C2CCN(CCCc3ccccc3)CC2)c2ccccc21 (stereo not shown)	OPRK1 (Homo sapiens, UniProt P41145)	radioligand displacement	–	with: tritiated U-69593	–	Ki	0.468 ± 0.0147 µM
CC[C@H](C)[C@H](NC(=O)[C@H](Cc1c[nH]c2ccccc12)NC(=O)[C@H](CCCCN)NC(=O)[C@H](CCCCN)NC(=O)[C@H](CC(C)C)NC(=O)[C@H](Cc1c[nH]c2ccccc12)NC(=O)[C@H](CCCCN)NC(=O)[C@@H](N)Cc1c[nH]c2ccccc12)C(=O)N[C@@H](CCCCN)C(N)=O	Mycobacterium bovis	–	isoniazid-resistant mutant, broth with pyruvate	48 h, 37 °C	–	MIC	10 µM (≈ 13.1 µg/mL)
CC(=O)N1C[C@@H](COP(=O)(N(C)C)N2C[C@@H](COP(=O)(N(C)C)N3C[C@@H](COP(=O)(N(C)C)N4C[C@@H](COP(=O)(N(C)C)N5C[C@@H](COP(=O)(N(C)C)N6C[C@@H](COP(=O)(N(C)C)N7C[C@@H](COP(=O)(N(C)C)N8C[C@@H](COP(=O)(N(C)C)N9C[C@@H](COP(=O)(N(C)C)N%10C[C@@H](COP(=O)(N(C)C)N%11C[C@@H](COP(=O)(N(C)C)N%12C[C@@H](COP(=O)(N(C)C)N%13C[C@@H](COP(=O)(N(C)C)N%14C[C@@H](COP(=O)(N(C)C)N%15C[C@@H](COP(=O)(N(C)C)N%16C[C@@H](COP(=O)(N(C)C)N%17C[C@@H](COP(=O)(N(C)C)N%18C[C@@H](COP(=O)(N(C)C)N%19C[C@@H](COP(=O)(N(C)C)N%20C[C@@H](COP(=O)(N(C)C)N%21C[C@@H](COP(=O)(N(C)C)N%22C[C@@H](COP(=O)(N(C)C)N%23C[C@@H](COP(=O)(N(C)C)N%24CCN(C(=O)CCCN%25C(=O)CC(SC[C@H](NC(=O)[C@H](CCCNC(=N)N)NC(=O)[C@H](CCCNC(=N)N)NC(=O)[C@H](CCCNC(=N)N)NC(=O)[C@H](CCCNC(=N)N)NC(=O)[C@H](Cc%26ccccc%26)NC(=O)[C@H](Cc%26ccccc%26)NC(=O)[C@H](CCCNC(=N)N)NC(=O)[C@H](CCCNC(=N)N)NC(=O)[C@H](CCCNC(=N)N)NC(=O)[C@H](CCCNC(=N)N)NC(=O)[C@@H](N)CCCNC(=N)N)C(N)=O)C%25=O)CC%24)O[C@@H](n%24cnc%25c(=O)[nH]c(N)nc%25%24)C%23)O[C@@H](n%23cc(C)c(=O)[nH]c%23=O)C%22)O[C@@H](n%22ccc(N)nc%22=O)C%21)O[C@@H](n%21cnc%22c(N)ncnc%22%21)C%20)O[C@@H](n%20cc(C)c(=O)[nH]c%20=O)C%19)O[C@@H](n%19ccc(N)nc%19=O)C%18)O[C@@H](n%18cc(C)c(=O)[nH]c%18=O)C%17)O[C@@H](n%17cc(C)c(=O)[nH]c%17=O)C%16)O[C@@H](n%16cnc%17c(=O)[nH]c(N)nc%17%16)C%15)O[C@@H](n%15ccc(N)nc%15=O)C%14)O[C@@H](n%14cnc%15c(=O)[nH]c(N)nc%15%14)C%13)O[C@@H](n%13ccc(N)nc%13=O)C%12)O[C@@H](n%12ccc(N)nc%12=O)C%11)O[C@@H](n%11cnc%12c(N)ncnc%12%11)C%10)O[C@@H](n%10cc(C)c(=O)[nH]c%10=O)C9)O[C@@H](n9cc(C)c(=O)[nH]c9=O)C8)O[C@@H](n8cc(C)c(=O)[nH]c8=O)C7)O[C@@H](n7cc(C)c(=O)[nH]c7=O)C6)O[C@@H](n6cc(C)c(=O)[nH]c6=O)C5)O[C@@H](n5cnc6c(=O)[nH]c(N)nc65)C4)O[C@@H](n4cc(C)c(=O)[nH]c4=O)C3)O[C@@H](n3cnc4c(=O)[nH]c(N)nc43)C2)O[C@@H](n2cnc3c(=O)[nH]c(N)nc32)C1 (stereo partly shown)	Kaposi's sarcoma-associated herpesvirus	flow cytometry	BCBL1 cells	8 µM, with: TPA	–	RTA-positive cells	~7%
CS(=O)(=O)NC(=O)CCc1cn(-c2ccc(Br)cc2)nc1-c1ccc(Cl)cc1	Mycobacterium tuberculosis	OD600	cyd deletion mutant	–	–	MIC	4 µM (≈ 1.93 µg/mL)
NC(=O)c1nc(F)c[nH]c1=O	Influenza A virus	plaque reduction	MDCK, GD/3	concentration not given	–	antiviral activity	active
Nc1c(C(=O)Nc2ccc(F)cc2Cl)sc2nc(-c3ccc(F)cc3)ccc12	Bacillus anthracis	–	Sterne	–	–	MIC50	> 80 µM
CC(C)[C@H](NC(=O)[C@H](Cc1c[nH]c2ccccc12)NC(=O)[C@H](CCCNC(=N)N)NC(=O)[C@H](Cc1c[nH]c2ccccc12)NC(=O)[C@H](Cc1c[nH]c2ccccc12)NC(=O)[C@H](CCCNC(=N)N)NC(=O)[C@@H](N)CCCNC(=N)N)C(=O)N[C@H](C(=O)N[C@@H](Cc1c[nH]c2ccccc12)C(N)=O)C(C)C	Bacillus anthracis	–	34F2 Sterne, LB medium	24 h, 37 °C	–	MIC	20 µM (≈ 28.6 µg/mL)
NC12CC3CC(CC(C3)C1)C2	Influenza A virus	viral replication	MDCK, A/Swine/Iowa/13-0505/2010 (H3N2)	–	–	EC50	< 1 µM
C[C@H](NP(=O)(Nc1ccn([C@H]2CS[C@@H](COP(=O)(N[C@@H](C)C(=O)OCc3ccccc3)N[C@@H](C)C(=O)OCc3ccccc3)O2)c(=O)n1)N[C@@H](C)C(=O)OCc1ccccc1)C(=O)OCc1ccccc1	HIV-2	viral replication	CCRF-CEM, ROD	4 d	–	EC50	58 ± 44 µM
Cc1cc(/C=C/C#N)cc(C)c1Oc1nc(NC2CCN(Cc3ccc(P(C)(C)=O)cc3)CC2)nc2ccsc12	Human immunodeficiency virus 1	viral replication	MT-4, Y188L mutant	–	baseline: doravirine EC50 over compound EC50	potency ratio	~262 fold
O=C(Nc1ccc([N+](=O)[O-])cc1)Nc1ccc(S(=O)(=O)Nc2ccc(Cl)c(Cl)c2)cc1	Bacillus anthracis	–	Sterne, Mueller-Hinton medium	–	–	MIC	2.8 µM (≈ 1.35 µg/mL)
CC[C@H](C)[C@H](NC(=O)[C@H](Cc1ccc(O)cc1)NC(=O)[C@H](CO)NC(=O)[C@H](CCC(=O)O)NC(=O)[C@H](CC(N)=O)NC(=O)[C@H](CC(C)C)NC(=O)[C@H](C)NC(=O)[C@H](CCCCN)NC(=O)[C@@H](NC(=O)[C@@H](NC(=O)[C@H](CCC(N)=O)NC(=O)[C@H](CCC(N)=O)NC(=O)[C@H](CC(C)C)NC(=O)[C@H](CO)NC(=O)[C@H](CC(C)C)NC(=O)[C@H](CCSC)NC(=O)[C@H](CCC(=O)O)NC(=O)[C@H](Cc1ccc(O)cc1)NC(=O)[C@@H](NC(=O)[C@H](CC(C)C)NC(=O)[C@H](CC(=O)O)NC(=O)[C@H](CC(C)C)NC(=O)[C@H](CC(C)C)NC(=O)[C@@H](NC(=O)[C@@H](NC(=O)[C@H](CC(N)=O)NC(=O)[C@@H](NC(=O)[C@H](CCC(N)=O)NC(=O)[C@@H](NC(=O)[C@H](CC(C)C)NC(=O)[C@@H](N)CO)[C@@H](C)O)[C@@H](C)CC)[C@@H](C)O)[C@@H](C)O)[C@@H](C)O)C(C)C)C(C)C)C(=O)N[C@@H](CC(=O)O)C(=O)N[C@@H](CC(C)C)C(=O)N[C@@H](CCCCN)C(=O)N[C@@H](CCC(=O)O)C(=O)N[C@@H](CC(C)C)C(=O)O	MERS-CoV	viral replication, CPE, MTT	HFL lung fibroblasts	–	–	IC50	13.9 µM
CCC(C(=O)Nc1sc(C(N)=O)c(C)c1C(=O)OC)c1ccccc1 (stereo not shown)	vaccinia virus mD4 surrogate	viral replication, plaque	BSC-1	24 h	–	EC50	21 ± 3.2 µM
CC(C)[C@H](NC(=O)[C@H](Cc1c[nH]c2ccccc12)NC(=O)[C@H](Cc1c[nH]cn1)NC(=O)[C@H](CCCNC(=N)N)NC(=O)[C@H](CCCNC(=N)N)NC(=O)[C@H](Cc1c[nH]c2ccccc12)NC(=O)[C@H](Cc1c[nH]c2ccccc12)NC(=O)[C@H](Cc1c[nH]cn1)NC(=O)[C@H](Cc1c[nH]c2ccccc12)NC(=O)[C@H](CCCNC(=N)N)NC(=O)[C@@H](N)CCCCN)C(=O)N[C@H](C(=O)N[C@@H](Cc1c[nH]c2ccccc12)C(N)=O)C(C)C	Mycobacterium bovis	–	isoniazid-resistant mutant, broth with pyruvate	48 h, 37 °C	–	MIC	5 µM (≈ 10.1 µg/mL)
Nc1c(C(=O)Nc2cc(Cl)ccc2Cl)sc2nc(-c3cccs3)ccc12	Bacillus anthracis	–	Sterne	–	–	MIC50	20 µM (≈ 8.41 µg/mL)
CSCC[C@@H]1NC(=O)[C@H](CC(C)C)NC(=O)[C@H](CCCNC(=N)N)NC(=O)[C@H](CO)NC(=O)[C@@H]2CSSC[C@@H]3NC(=O)[C@H](CO)NC(=O)CNC(=O)[C@H]([C@@H](C)O)NC(=O)[C@H](CSSC[C@H](N)C(=O)N[C@@H](CCCCN)C(=O)NCC(=O)N[C@@H](CCCCN)C(=O)NCC(=O)N[C@@H](C)C(=O)N[C@@H](CCCCN)C(=O)N2)NC(=O)[C@H](CSSC[C@@H](C(N)=O)NC(=O)[C@H](CCCCN)NC(=O)CNC(=O)[C@H](CO)NC(=O)[C@H](CCCNC(=N)N)NC3=O)NC(=O)[C@H](CC(=O)O)NC(=O)[C@H](Cc2ccc(O)cc2)NC1=O	Candida tropicalis	–	–	–	–	MIC	39.8 µM (≈ 105 µg/mL)

A few entries again:
SMILES	target or system	test	system	conditions	scale	quantity	value
NC(=O)c1nc(F)c[nH]c1=O	Influenza A virus	plaque reduction	MDCK, GD/3	concentration not given	–	antiviral activity	active
